Experimental data pooled from the literature.
Numbered parts are unrelated; each lists some results of a single study. ± gives the spread as reported.

Block 1
Compound: Cc1cc(OCc2nnc(SC3CCCC3)n2-c2cccnc2)ccc1-c1ccc(S(C)(=O)=O)cc1
| cell line | GI50 |
| --- | --- |
| OVCAR-4 | 354 nM |
| HCT-15 | 1240 nM |
| CAKI-1 | 1150 nM |

Mixed results
EPHX2: Bifunctional epoxide hydrolase 2 (EPHX2, Homo sapiens, UniProt P34913)
UniProt P34913, sequence (whole entry, looked up): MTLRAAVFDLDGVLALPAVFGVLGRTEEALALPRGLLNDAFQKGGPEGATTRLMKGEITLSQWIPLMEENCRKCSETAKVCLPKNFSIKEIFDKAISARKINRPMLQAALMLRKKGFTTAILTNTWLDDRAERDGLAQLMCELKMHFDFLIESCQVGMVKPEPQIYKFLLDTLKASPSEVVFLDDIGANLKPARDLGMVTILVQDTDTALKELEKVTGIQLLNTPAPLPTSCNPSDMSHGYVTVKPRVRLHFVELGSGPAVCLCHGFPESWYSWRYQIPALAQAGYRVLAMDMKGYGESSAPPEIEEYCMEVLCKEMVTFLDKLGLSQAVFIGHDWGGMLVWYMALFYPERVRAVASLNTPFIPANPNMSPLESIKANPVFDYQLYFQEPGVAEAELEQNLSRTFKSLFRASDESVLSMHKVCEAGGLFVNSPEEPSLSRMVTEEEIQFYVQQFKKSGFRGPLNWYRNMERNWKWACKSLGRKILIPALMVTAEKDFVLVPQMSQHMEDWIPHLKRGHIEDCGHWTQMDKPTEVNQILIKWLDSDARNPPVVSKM
| Substance | tested on | assay | conditions | measurement | result |
| --- | --- | --- | --- | --- | --- |
| pyc (Rhizobium etli, UniProt Q2K340) | NC(=O)OP(=O)(O)O | steady-state kinetics | pH 7.5, 25 °C, apparent | kcat/Km | 15.5 ± 0.333 M⁻¹ s⁻¹ |
| Cc1ccc(S(=O)(=O)Nc2c(N3CCC(NC(=O)Nc4ccc(OC(F)(F)F)cc4)CC3)c(=O)c2=O)cc1 | EPHX2 |  |  | IC50 | 5.4 ± 0.7 nM |
| O=C(Nc1ccc(-c2ccc3ccccc3n2)cc1)C1CCN(Cc2ccc(F)cc2)CC1 | EPHX2 |  |  | IC50 | 316 nM |

A few entries again (block 1):
| cell line | GI50 |
| --- | --- |
| OVCAR-4 | 354 nM |
